Published values collected from several papers.
Each numbered part is a random draw from the data of one study; scales do not carry over between parts. Several values in a cell are separate wells, animals, samples, runs or records.
Chain of UniProt P33981 (whole entry, looked up): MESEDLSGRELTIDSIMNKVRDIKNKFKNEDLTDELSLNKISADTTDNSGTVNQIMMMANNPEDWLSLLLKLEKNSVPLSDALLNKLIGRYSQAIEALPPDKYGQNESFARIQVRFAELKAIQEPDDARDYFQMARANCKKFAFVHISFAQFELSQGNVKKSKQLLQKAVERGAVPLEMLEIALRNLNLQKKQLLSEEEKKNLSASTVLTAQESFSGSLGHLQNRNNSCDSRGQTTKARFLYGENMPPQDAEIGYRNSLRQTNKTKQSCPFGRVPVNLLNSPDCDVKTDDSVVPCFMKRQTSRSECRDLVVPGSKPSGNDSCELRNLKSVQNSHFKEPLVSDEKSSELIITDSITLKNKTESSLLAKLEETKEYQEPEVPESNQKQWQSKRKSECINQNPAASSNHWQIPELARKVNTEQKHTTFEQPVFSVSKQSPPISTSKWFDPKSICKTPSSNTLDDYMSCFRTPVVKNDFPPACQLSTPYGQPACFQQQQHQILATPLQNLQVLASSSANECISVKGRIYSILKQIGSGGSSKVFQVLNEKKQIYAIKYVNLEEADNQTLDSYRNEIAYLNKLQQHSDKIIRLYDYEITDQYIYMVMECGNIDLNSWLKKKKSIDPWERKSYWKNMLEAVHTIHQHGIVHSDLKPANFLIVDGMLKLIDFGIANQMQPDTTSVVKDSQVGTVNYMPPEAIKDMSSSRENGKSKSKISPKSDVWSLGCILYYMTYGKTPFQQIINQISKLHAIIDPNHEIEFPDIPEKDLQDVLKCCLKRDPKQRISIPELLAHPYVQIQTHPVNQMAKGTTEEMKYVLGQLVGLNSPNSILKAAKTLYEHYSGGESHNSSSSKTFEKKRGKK
Chain of UniProt Q9Y2H1 (whole entry, looked up): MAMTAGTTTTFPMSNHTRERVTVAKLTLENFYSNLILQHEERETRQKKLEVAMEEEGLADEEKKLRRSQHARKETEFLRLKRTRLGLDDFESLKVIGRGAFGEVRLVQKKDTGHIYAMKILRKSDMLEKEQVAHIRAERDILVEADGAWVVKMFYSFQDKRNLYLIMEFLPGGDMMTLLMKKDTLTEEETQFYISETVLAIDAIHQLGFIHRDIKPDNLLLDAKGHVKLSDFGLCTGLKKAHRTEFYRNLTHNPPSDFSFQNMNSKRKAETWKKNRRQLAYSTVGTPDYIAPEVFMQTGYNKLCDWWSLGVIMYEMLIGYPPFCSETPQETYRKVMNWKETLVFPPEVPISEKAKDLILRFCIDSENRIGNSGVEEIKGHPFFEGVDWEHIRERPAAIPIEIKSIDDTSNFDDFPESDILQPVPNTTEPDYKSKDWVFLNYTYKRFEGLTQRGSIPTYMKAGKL
Chain of UniProt P0C1S8 (whole entry, looked up): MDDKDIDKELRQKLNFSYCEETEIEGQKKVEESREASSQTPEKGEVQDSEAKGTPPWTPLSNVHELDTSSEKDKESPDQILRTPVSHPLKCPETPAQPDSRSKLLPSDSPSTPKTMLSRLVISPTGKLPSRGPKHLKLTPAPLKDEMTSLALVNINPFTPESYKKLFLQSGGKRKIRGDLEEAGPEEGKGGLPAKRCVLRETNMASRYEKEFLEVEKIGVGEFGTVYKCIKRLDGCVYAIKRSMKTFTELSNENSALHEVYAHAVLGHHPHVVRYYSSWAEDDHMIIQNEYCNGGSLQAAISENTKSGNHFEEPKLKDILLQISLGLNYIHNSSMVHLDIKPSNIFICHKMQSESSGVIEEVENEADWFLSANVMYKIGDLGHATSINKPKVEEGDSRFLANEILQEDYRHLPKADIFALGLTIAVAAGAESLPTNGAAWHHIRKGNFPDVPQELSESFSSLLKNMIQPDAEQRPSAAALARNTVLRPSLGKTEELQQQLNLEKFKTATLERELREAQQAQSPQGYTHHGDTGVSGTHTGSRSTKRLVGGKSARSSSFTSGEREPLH
Chain of UniProt Q9Y2K2 (whole entry, looked up): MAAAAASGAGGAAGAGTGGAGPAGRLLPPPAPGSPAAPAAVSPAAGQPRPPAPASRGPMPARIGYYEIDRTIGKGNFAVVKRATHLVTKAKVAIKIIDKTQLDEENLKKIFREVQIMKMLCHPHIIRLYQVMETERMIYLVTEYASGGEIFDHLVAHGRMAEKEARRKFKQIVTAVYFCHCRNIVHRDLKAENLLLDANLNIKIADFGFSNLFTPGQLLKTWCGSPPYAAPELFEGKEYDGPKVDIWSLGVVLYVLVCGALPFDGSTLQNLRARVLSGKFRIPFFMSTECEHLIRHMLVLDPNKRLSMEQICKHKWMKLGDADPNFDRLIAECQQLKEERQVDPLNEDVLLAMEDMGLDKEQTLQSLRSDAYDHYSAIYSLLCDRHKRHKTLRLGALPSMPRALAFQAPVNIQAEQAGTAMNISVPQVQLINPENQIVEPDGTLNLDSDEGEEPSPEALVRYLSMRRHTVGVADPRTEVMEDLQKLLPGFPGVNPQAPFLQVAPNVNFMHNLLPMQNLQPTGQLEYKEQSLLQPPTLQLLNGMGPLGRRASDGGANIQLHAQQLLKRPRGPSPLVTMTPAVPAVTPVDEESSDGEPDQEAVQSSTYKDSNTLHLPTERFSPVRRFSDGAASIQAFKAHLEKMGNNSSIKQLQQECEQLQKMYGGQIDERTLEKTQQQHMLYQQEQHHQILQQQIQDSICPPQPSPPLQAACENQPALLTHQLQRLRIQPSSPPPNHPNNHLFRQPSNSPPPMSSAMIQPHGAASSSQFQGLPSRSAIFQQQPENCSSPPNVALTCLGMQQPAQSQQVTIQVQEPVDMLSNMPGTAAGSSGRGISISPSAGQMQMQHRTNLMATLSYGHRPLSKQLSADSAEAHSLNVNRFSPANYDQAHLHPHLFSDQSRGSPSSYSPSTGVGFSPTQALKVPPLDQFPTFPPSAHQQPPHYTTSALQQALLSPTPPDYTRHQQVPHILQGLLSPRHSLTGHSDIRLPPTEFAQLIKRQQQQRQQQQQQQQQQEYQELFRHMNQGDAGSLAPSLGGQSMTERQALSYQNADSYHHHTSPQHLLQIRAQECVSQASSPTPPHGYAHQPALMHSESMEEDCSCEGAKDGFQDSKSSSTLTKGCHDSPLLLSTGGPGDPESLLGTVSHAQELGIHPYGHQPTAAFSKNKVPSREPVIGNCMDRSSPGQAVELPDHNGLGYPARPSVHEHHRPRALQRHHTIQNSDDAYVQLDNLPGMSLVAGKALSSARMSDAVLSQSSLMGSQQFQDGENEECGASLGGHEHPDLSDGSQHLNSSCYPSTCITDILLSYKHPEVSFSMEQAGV
Chain of UniProt Q9H1R3 (whole entry, looked up): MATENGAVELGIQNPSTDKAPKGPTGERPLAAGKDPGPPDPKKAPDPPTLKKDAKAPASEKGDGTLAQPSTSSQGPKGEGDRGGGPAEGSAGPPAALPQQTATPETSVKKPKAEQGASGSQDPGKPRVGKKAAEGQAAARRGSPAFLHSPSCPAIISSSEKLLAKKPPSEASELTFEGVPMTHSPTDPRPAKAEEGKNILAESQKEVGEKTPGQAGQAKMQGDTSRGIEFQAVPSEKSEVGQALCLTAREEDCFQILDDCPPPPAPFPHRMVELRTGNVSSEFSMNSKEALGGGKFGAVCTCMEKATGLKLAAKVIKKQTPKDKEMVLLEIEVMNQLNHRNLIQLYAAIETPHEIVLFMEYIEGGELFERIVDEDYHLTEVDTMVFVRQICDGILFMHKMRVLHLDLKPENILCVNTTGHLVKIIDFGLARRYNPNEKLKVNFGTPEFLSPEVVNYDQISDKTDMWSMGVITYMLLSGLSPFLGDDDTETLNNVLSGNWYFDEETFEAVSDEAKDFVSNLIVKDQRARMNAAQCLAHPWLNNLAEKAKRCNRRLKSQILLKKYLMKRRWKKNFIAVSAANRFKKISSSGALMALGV

Sample 1
Structure (SMILES): Cn1cncc1[C@](O)(COc1ccc(C#N)cc1-c1ccc(OC(F)(F)F)cc1)c1ccc(C#N)cc1
Observed: cell-free assay
Technique: competition with immobilised ligand
Tested at: 1 µM
Endpoint: remaining binding
WEE2 (Homo sapiens, UniProt P0C1S8): 84%
EGFR (Homo sapiens, UniProt P00533, del746-750): 78%
SIK3 (Homo sapiens, UniProt Q9Y2K2): 67%
MAP3K19 (Homo sapiens, UniProt Q56UN5): 63%
MYLK2 (Homo sapiens, UniProt Q9H1R3): 78%
TTK (Homo sapiens, UniProt P33981): 100%
STK38L (Homo sapiens, UniProt Q9Y2H1): 65%

Sample 2
Target: Dual specificity tyrosine-phosphorylation-regulated kinase 1B (DYRK1B, Homo sapiens, UniProt Q9Y463)
Observed: enzyme activity
Mode: inhibitor
Technique: radiometric
Tested at: 0.5 µM
Endpoint: remaining activity
CC(C)[C@H](CO)Nc1nc(Nc2cc(N)cc(Cl)c2)c2ncn(C(C)C)c2n1: 38.3%
O=c1cc(N2CCNCC2)oc2c(-c3ccccc3)cccc12: 99.2%
O=C(Nc1cccc(Nc2cc(Nc3cccc(C(F)(F)F)c3)ncn2)c1)C1CC1: 105%
COc1cc2ncnc(Nc3ccc(Oc4ccccc4)cc3)c2cc1OC: 97%
O=C(O)c1ccc2c3c1cccc3c(=O)n1c3ccccc3nc21: 40.1%
Cc1ccc(Nc2nccc(N(C)c3ccc4c(C)n(C)nc4c3)n2)cc1S(N)(=O)=O: 93.3%
N#CCCc1ccc2c(c1)-c1[nH]c3ccc([N+](=O)[O-])cc3c1CC(=O)N2: 76.8%

Sample 3
Target: Beta-1 adrenergic receptor (ADRB1, Homo sapiens, UniProt P08588)
Chain of UniProt P08588 (whole entry, looked up): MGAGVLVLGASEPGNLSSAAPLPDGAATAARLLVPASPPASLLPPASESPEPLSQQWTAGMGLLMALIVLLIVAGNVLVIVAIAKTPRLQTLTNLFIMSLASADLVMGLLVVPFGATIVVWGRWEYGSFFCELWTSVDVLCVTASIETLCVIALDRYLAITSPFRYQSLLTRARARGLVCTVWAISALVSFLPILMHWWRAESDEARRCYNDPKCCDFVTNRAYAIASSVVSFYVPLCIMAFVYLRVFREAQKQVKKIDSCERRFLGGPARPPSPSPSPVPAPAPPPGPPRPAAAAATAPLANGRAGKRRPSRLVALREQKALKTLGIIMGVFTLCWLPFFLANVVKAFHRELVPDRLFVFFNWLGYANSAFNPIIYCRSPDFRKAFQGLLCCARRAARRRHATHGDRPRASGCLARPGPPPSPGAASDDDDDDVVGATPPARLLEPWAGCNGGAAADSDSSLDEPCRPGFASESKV
Mode: agonist
Endpoint: EC50
Cc1ncc2c(c1CNCC1(O)CNCCOC1)CCNC2 (centres unmarked): ≥ 100 µM
Oc1cc2ccccc2c2ccccc12: ≥ 100 µM
CNc1ccc2c(CCN)cc(=O)oc2c1: ≥ 100 µM

Sample 4
SMILES: CC(C)S(=O)(=O)c1ccc2nccc(Nc3ccc4sc(C5CCCC5)nc4c3)c2c1.Cl
Endpoint: viability
L929; CCK-8; 50 µM, together with: zVAD: 55.6% and 53.7% and 57.1% and 57.2% and 55.3%
L929 RIPK3 knockout; 6.25 µM: 103% and 97.8% and 101% and 105% and 97%
L929; CCK-8; 50 µM: 53.3% and 57.7% and 56.6% and 56.4%
L929 RIPK3 knockout; 6.25 µM, together with: zVAD: 103% and 104% and 102%
L929 RIPK3 knockout; 0.781 µM: 96% and 96.9% and 104% and 102%
L929 RIPK3 knockout; 50 µM, together with: zVAD: 64.2% and 62.8% and 63.5% and 62.1% and 66.7%
L929; CCK-8; 3.125 µM, together with: zVAD: 99.5% and 99.6% and 99.7% and 100% and 97.9%
L929; CCK-8; 1.563 µM, together with: zVAD: 97.6% and 105% and 96.9% and 97.9%
L929 RIPK3 knockout; 0.781 µM, together with: zVAD: 102% and 101%

For quick reference, copied from above (sample 4):
L929 RIPK3 knockout; 6.25 µM, together with: zVAD: 103% and 104% and 102%
L929 RIPK3 knockout; 0.781 µM: 96% and 96.9% and 104% and 102%
L929 RIPK3 knockout; 50 µM, together with: zVAD: 64.2% and 62.8% and 63.5% and 62.1% and 66.7%
L929; CCK-8; 3.125 µM, together with: zVAD: 99.5% and 99.6% and 99.7% and 100% and 97.9%
